Published values collected from several papers.
Parts stem from different laboratories: compare values within a part only.

Block 1
Target: Histone acetyltransferase KAT6A, winged helix 1, GST fusion (KAT6A, Homo sapiens, UniProt Q92794, residues 1-85)
Technique: protein binding microarray
Form: double-stranded DNA, one strand shown
Medium: in vitro
Concentration: not given
Setting: 8-mer, flanks averaged, mean of 2 arrays, mostly near background
Baseline: not given
Direction: higher = stronger binding
Construct (chain): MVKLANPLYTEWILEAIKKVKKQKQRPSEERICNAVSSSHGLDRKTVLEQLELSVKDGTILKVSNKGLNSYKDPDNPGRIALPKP
Sequence | E-score
TCAACAAA | -0.072
CGAATAAC | 0.068
CTCACTCA | -0.193
TCGGCCGA | 0.363
GCCTGGCC | 0.143
CCGCCAAA | 0.126
CGGAAGAG | 0.114
TAACTATA | -0.124
AGCCGCAC | 0.21
GATGAAAC | -0.0508
AAATACGC | 0.15
ACTCTTGA | -0.24
CTCAATAC | -0.194
AATTACCT | -0.101
CATAGCAA | -0.211
CACGCACA | 0.0444
CGTTACAA | -0.0399
GAGTTGCA | -0.229
CACCGGAA | 0.102

Block 2
Target: TAR DNA-binding protein 43, full length, His tag (TARDBP, Homo sapiens, UniProt Q13148, residues 1-414)
Technique: RNA Bind-n-Seq
Form: RNA
Medium: in vitro
Concentration: 20 nM
Setting: 6-mer, flanks averaged, single round
Together with: 150 mM KCl
Baseline: input library
Direction: higher = stronger binding
Sequence | 6-mer enrichment (R)
AUCCCU | 0.598
GUCUGU | 0.831
GAGAGG | 3.98
CGCAAA | 0.693
GUCGGU | 1.25
CGAUGU | 0.775
UCUCUG | 0.612
GAAUGG | 1.94
UACCUG | 0.633
UGACGU | 0.789
UUCUCA | 0.534
AUAUAG | 0.663
UAAAAU | 0.67
ACAACU | 0.631
GUGGGA | 4.25
UUACGG | 0.884
AACCGC | 0.648
CAACCC | 0.627

Block 3
Target: RNA binding protein fox-1 homolog 2, RRM domain, GST-SBP tag (RBFOX2, Homo sapiens, UniProt O43251-10, residues 100-194)
Technique: RNA Bind-n-Seq
Form: RNA
Medium: in vitro
Concentration: 365 nM
Setting: natural RNA segment, single round, ends assumed
Baseline: no-protein control
Direction: higher = stronger binding
Shared flanks, not repeated: GGGAGUUCUACAGUCCGACGAUC … UGGAAUUCUCGGGUGCCAA
Construct (chain): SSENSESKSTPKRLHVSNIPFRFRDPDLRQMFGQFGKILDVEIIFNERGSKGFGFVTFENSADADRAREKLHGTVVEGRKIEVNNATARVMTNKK
Sequence | RBNS enrichment (R)
CCAGGGCAGGGCCCCAGGCAUUGCCAAGGGCUUUGUUUUGCACACUUUGCCAUAUUUUCACCAUUUGAUUAUGUAGCAAAAUACAUGACAUUUAUUUUUCAUUUAGUUUG | 0.292
GGCCCGACCUAUCUAGCCCUCUCUGCUGUUACCUGCCAUGCCUUGCCCCUCUCCUUCCUGGCUACUUAAGGUCAGGAAGGAAAAAGGGGACCUCUGUUUCUUCGGCUGUU | 0.331
GCAAGCAGUGUAAACUGCAACUAGUGAUGUAAAUGUGCUAUUACCUAGGUAACUGCAUAUAUAUAAGGAAUGUAUUUUGUUAAGAAGGCUUUUGUGAAAUUCAGAAUUUU | 0.493
GGUGUUCUGGGUCCCAGCCUUGUCUUAUCGCCUGUCCUGUCAGUGUCCAACCACACGGUGGCUUGGUGGGGUCACUCAGCUGCUAUGGGACAGCACAUGUGGGAAGUCAA | 0.353
UAGAACAGAGGUAUUUGCAACCUGAAAAACCACUUUUAAUAAGAGCUGUAUGAUAAAUUGUUGAAAUGCAAGUGUAAAUAUUUUUUAUGUUAAUCCAGUUUCCUAUUAGA | 1.66
GAGGCUGGCUUUGAACUUGGGAUCCUGAGGCUUCAGACUCCCAGGUGGCUGUUUAUUCUCUCUAACCAGCUCUGUUAGAUAUUUCCUCUAAUCAAGCUAAUUGGUUACUG | 0.323
CCGUGGAUGAGUUUAGUGUACAGACUUGUAAACAGCUGCCCCCUCUCUGCUCAGUCUAGUUCCCAGAUCCUUUUCUUUUCUUUUUAAUUGCUCAUUUGUAAAAUUGUCCU | 0.838
AUGGAUGACAUCUCAUUGAUAGUACCCAGAUGUUGGUGGCUUUCUGAGUUGCCUGUUUACUGUUGAUGCAAUUGUUUUGAUUUUUAACUAAAUGCAAAUACCUUCCUGCC | 0.446

Block 4
Target: Interferon regulatory factor 5, full length, phosphomimetic (IRF5, Homo sapiens, UniProt Q13568-2, residues 1-514, K96S/S451D/S453D/S456D/S462D)
Technique: protein-binding microarray
Form: double-stranded DNA, one strand shown
Medium: in vitro
Concentration: 250 nM
Setting: 60-bp whole probe
Together with: salmon DNA 0.4 mg/ml
Baseline: random background probes
Direction: higher = stronger binding
Shared flanks, not repeated: GCCTAGCAC … GTCTTGATTCGCTTGACGCTGCTG
Sequence | log fluorescence
TACGGTTTCGGGTTTCGGGACGTGCTA | 8.11 z-score
TTAGGTATCGGTCGCGGTTAGTGCTAG | 6.53 z-score
TCATGATCCATTTTGGTACTGTGCTAG | 0.388 z-score
TTAGGACTGCACACTGGGTTAGTGCTA | -0.533 z-score
AGGATCCTGGGAGGGAGAGCGTGCTAG | -0.67 z-score
TTAGGTCTCCCACTGCTTTAGTGCTAG | -0.417 z-score
GACGGTTTCGACTTTAGGGACGTGCTA | 5.5 z-score
TCACATTTGGAAAATGAAACTGTGCTA | 1.11 z-score
GACGGTCTCCTTAACCTGACGTGCTAG | -0.256 z-score
TCTGTTTTTGCTTTCCTTCAGTGCTAG | 2.39 z-score
GACGGGCTGCTACTGCTGACGTGCTAG | -0.695 z-score
GCCGATTTCGGGTTTCGAGACGTGCTA | 6.22 z-score
AAATTTTGATGAACTTAAGCGTGCTAG | 0.324 z-score
TTAGGTTCCGATTTCGGTTAGTGCTAG | 5.94 z-score
TCCTCTTTCACTGGTCCTCATGTGCTA | 3.57 z-score
TGAGGTTTCGGTCTCGGTTAGTGCTAG | 9.37 z-score
GACGGTTTCCTCTTCCTGACGTGCTAG | 0.62 z-score
TTAGGACTGGGTTTCGGTTAGTGCTAG | 7.58 z-score
TTAGGTATCGACTCTCGGTTAGTGCTA | 3.35 z-score

Block 5
Target: PABPC1L2, full length, GST fusion (mouse, UniProt A0ABA7IW68)
Technique: RNAcompete
Form: RNA
Medium: in vitro
Concentration: 20 nM
Setting: 7-mer, probes averaged, single round
Baseline: mean of 7-mers
Direction: higher = stronger binding
Construct (chain): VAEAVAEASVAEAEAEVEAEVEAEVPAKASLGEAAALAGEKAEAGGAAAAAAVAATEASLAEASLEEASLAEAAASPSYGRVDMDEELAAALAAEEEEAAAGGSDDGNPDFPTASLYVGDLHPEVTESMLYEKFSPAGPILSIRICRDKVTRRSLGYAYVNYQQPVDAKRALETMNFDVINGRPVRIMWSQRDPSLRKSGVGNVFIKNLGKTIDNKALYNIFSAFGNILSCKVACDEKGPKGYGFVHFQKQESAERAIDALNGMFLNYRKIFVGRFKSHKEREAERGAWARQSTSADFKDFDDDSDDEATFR
Sequence | 7-mer Z-score
CAGGCGC | -0.166
UGUCUGG | -0.26
UGCCAGG | -0.237
ACACGAA | 0.157
UCAAGUG | -0.193
CUUGGAC | -0.0301
ACCAUAU | -0.0627
AUCGAUG | 0.0515
GGGAGCC | -0.0554
GACCGCU | -0.204
AGGCUGA | 0.247
GUCUUUC | -0.536
GCUUGUU | -0.394
UGCUGUG | -0.155
AAUUCAA | 0.189
CAUGCGG | -0.0591
GCCGGAG | 0.0478
AACCGGG | 0.171
UAAAAAG | 12.3

For quick reference, copied from above (block 5):
Sequence | 7-mer Z-score
UGCCAGG | -0.237
ACACGAA | 0.157
UCAAGUG | -0.193
CUUGGAC | -0.0301
ACCAUAU | -0.0627
AUCGAUG | 0.0515
GGGAGCC | -0.0554
GACCGCU | -0.204
AGGCUGA | 0.247
GUCUUUC | -0.536
GCUUGUU | -0.394
UGCUGUG | -0.155
AAUUCAA | 0.189
